Results of several laboratories.
Values joined by “and” are separate records of one study, mostly repeats; a detail may differ. ± gives the spread as reported.

| Structure (SMILES) | test | test system | conditions | scale | endpoint | result |
| --- | --- | --- | --- | --- | --- | --- |
| CCCCC[C@H]1C(=O)N[C@H](C)C(=O)N(C)[C@@H](CCCCC)C(=O)N(C)[C@H](C)C(=O)N(C)[C@@H](CCCCC)C(=O)N[C@H](C)C(=O)N(C)[C@@H](CCCCC)C(=O)N(C)[C@H](C)C(=O)N1C | PAMPA, HPLC-UV | – | 500 µM, pH 7.4 | – | log Papp | -5.67 ± 0.04 |
| C(#Cc1cncc(OC[C@@H]2CCN2)c1)c1ccccc1 | – | male Sprague-Dawley rat, plasma | oral, 75 mg/kg, 3 h | – | concentration | 360 ng/mL |
| CC(C)[C@H](NC(=O)[C@@H](NC(=O)[C@H](CCCNC(=N)N)NC(=O)[C@H](CCCNC(=N)N)NC(=O)[C@H](CCCNC(=N)N)NC(=O)[C@H](CCC(N)=O)NC(=O)[C@H](CCCNC(=N)N)NC(=O)[C@H](CCCNC(=N)N)NC(=O)[C@H](CCCCN)NC(=O)[C@H](CCCCN)NC(=O)[C@H](CCCNC(=N)N)NC(=O)CN)[C@@H](C)O)C(=O)N[C@H](C(=O)N[C@@H](CO)C(=O)N1CCC[C@H]1C(=O)O)[C@@H](C)O | – | ICR mice, male, liver | intranasal, 10 mg/kg daily, 4 weeks | – | organ weight | 1.76 ± 0.231 g |
| N=C(N)NCCC[C@@H](NC(=O)[C@H](N)Cc1c[nH]c2ccccc12)C(=O)N[C@H](CCCCN)C(=O)N[C@H](Cc1c[nH]c2ccccc12)C(=O)N[C@H](CCCNC(=N)N)C(=O)N[C@H](CCCCN)C(=O)N[C@H](Cc1c[nH]c2ccccc12)C(=O)N[C@H](CCCNC(=N)N)C(=O)N[C@H](CCCCN)C(=O)N[C@H](Cc1c[nH]c2ccccc12)C(=O)N[C@H](CCCNC(=N)N)C(=O)N[C@H](CCCCN)C(N)=O | – | mouse | intraperitoneal, 40 mg/kg single dose, day 2 | – | survival | 75% |
| CC1(C)C(=O)N(c2ccc(C#N)c(C(F)(F)F)c2)C(=S)N1c1ccc(C(N)=O)c(F)c1 | – | human, male, plasma | oral, 40 mg, soft capsule | – | Cmax | 118 ± 22.1 ng/mL |
| CC[C@H](C)[C@H](NC(=O)[C@H](CCCCN)NC(=O)CNC(=O)[C@H](CC(C)C)NC(=O)[C@H](Cc1ccccc1)NC(=O)[C@H](CCCCN)NC(=O)[C@H](CO)NC(=O)[C@H](Cc1ccccc1)NC(=O)[C@H](Cc1c[nH]c2ccccc12)NC(=O)[C@H](CCC(N)=O)NC(=O)[C@@H](NC(=O)[C@H](Cc1ccccc1)NC(=O)CCCCCNC(=O)CN1CCN(CC(=O)O)CCN(CC(=O)O)CCN(CC(=O)O)CC1)C(C)C)C(=O)N[C@@H](CCC(=O)O)C(=O)N1CCC[C@H]1C(=O)N[C@@H](CC(=O)O)C(=O)N[C@H](C(=O)N[C@@H](CO)C(=O)N[C@@H](CCC(N)=O)C(=O)N[C@H](C(=O)N[C@@H](CCC(N)=O)C(=O)N[C@@H](CC(=O)O)C(=O)N1CCC[C@H]1C(=O)N[C@@H](CC(N)=O)C(=O)N[C@@H](CC(=O)O)C(=O)N[C@@H](CCC(N)=O)C(=O)N[C@@H](Cc1ccc(O)cc1)C(=O)N[C@@H](CCC(=O)O)C(=O)N1CCC[C@H]1C(=O)N[C@@H](Cc1ccccc1)C(=O)O)C(C)C)C(C)C [copper-64 labelled] | – | C57BL/6 mice, spleen | together with: LPS 0.1 mg/kg intratracheal | – | tissue uptake | 0.76 ± 0.1 %ID/g |
| CC[C@H](C)[C@H](NC(=O)[C@@H](NC(=O)[C@@H]1CCCN1C(=O)[C@@H](N)CCCNC(=N)N)C(C)C)C(=O)N[C@@H](CC(N)=O)C(=O)N[C@@H](CC(C)C)C(=O)N[C@@H](C)C(=O)N[C@@H](CS)C(=O)N[C@@H](CCCCN)C(=O)N[C@@H](CC(C)C)C(=O)N[C@@H](Cc1c[nH]c2ccccc12)C(=O)O | – | mouse red blood cells | – | – | minimal haemolytic concentration | 100 µM |
| CC(C)[C@@H]1NC(=O)CNC(=O)[C@H](CC(N)=O)NC(=O)[C@H](CCCNC(=N)N)NC(=O)[C@H](Cc2ccc(O)cc2)NC(=O)[C@H](C(C)C)NC(=O)[C@@H](NC(=O)[C@@H](NC(=O)[C@H](CC(N)=O)NC(=O)[C@H](Cc2c[nH]c3ccccc23)NC(=O)[C@H](C)NC(=O)[C@H](Cc2ccccc2)NC(=O)CNC(=O)[C@H](CCCCN)NC(=O)[C@H](Cc2ccccc2)NC(=O)[C@H](Cc2ccccc2)NC(=O)[C@H](CCCCN)NC(=O)OCC2c3ccccc3-c3ccccc32)C(C)C)CSSC[C@@H](C(=O)N[C@@H](Cc2c[nH]cn2)C(=O)N[C@@H](CCCNC(=N)N)C(=O)N[C@@H](CCCNC(=N)N)C(=O)N[C@@H](C)C(=O)N[C@@H](CC(N)=O)C(N)=O)NC(=O)[C@H](C(C)C)NC(=O)[C@H](CCCNC(=N)N)NC1=O | – | ICR mice, blood | intraperitoneal, 5 mg/kg, day 5 | – | eosinophils | 2.45 ± 0.22% |
| N#[11C]c1ccc(-c2csc(NN=C3CCCC3)n2)cc1 | – | C57BL/6 mice, male, bladder | intravenous, 3 MBq, 15 min | – | radioactivity uptake | 16.4 ± 5.8 %ID/g |
| CN1Cc2cc(Cl)ccc2-n2c(nnc2C2CCN(c3cccc([18F])n3)CC2)C1 | PET two-tissue compartment model | rhesus monkey, thalamus | intravenous, dose not given, 90 min scan, baseline scan | – | total volume of distribution | 1.13 ± 0.34 mL/cm3 |
| O=C1NC2(CC2)COc2ncc(F)cc2[C@H]2COCCN2c2ccn3ncc1c3n2 | – | Sprague-Dawley rat, female, serum | oral, 10 mg/kg/day, 4 weeks daily, end of treatment | – | creatinine | 37.7 ± 5.3 µmol/L |
| COc1cnc2cccc(N3CCc4c(cc(Cn5ccnc5)cc4-c4cn(C)nc4C(F)(F)F)C3=O)c2c1 | – | BALB/c nude mice, MV4-11 xenograft | intraperitoneal, 50 mg/kg, day 35 | – | body weight | 24.1 g and 23.4 g and 20.1 g and 18.7 g and 21.3 g |
| N=C(N)NCCC[C@H](NC(=O)[C@H](CCCNC(=N)N)NC(=O)[C@H](CCCNC(=N)N)NC(=O)[C@H](CCC(N)=O)NC(=O)[C@H](CCCNC(=N)N)NC(=O)[C@H](CCCNC(=N)N)NC(=O)[C@H](CCCCN)NC(=O)[C@H](CCCCN)NC(=O)[C@H](CCCNC(=N)N)NC(=O)CNC(=O)[C@H](Cc1ccc(O)cc1)NC(=O)[C@H](Cc1ccccc1)NC(=O)[C@H](Cc1ccccc1)NC(=O)[C@H](Cc1ccccc1)NC(=O)OCC1c2ccccc2-c2ccccc21)C(=O)O | – | C57BL/6 mice | intraperitoneal, 5 mg/kg, 12 h | direction not given | health score | 5 |

Repeated from above:
| Structure (SMILES) | test | test system | conditions | scale | endpoint | result |
| --- | --- | --- | --- | --- | --- | --- |
| CC(C)[C@H](NC(=O)[C@@H](NC(=O)[C@H](CCCNC(=N)N)NC(=O)[C@H](CCCNC(=N)N)NC(=O)[C@H](CCCNC(=N)N)NC(=O)[C@H](CCC(N)=O)NC(=O)[C@H](CCCNC(=N)N)NC(=O)[C@H](CCCNC(=N)N)NC(=O)[C@H](CCCCN)NC(=O)[C@H](CCCCN)NC(=O)[C@H](CCCNC(=N)N)NC(=O)CN)[C@@H](C)O)C(=O)N[C@H](C(=O)N[C@@H](CO)C(=O)N1CCC[C@H]1C(=O)O)[C@@H](C)O | – | ICR mice, male, liver | intranasal, 10 mg/kg daily, 4 weeks | – | organ weight | 1.76 ± 0.231 g |
| N=C(N)NCCC[C@@H](NC(=O)[C@H](N)Cc1c[nH]c2ccccc12)C(=O)N[C@H](CCCCN)C(=O)N[C@H](Cc1c[nH]c2ccccc12)C(=O)N[C@H](CCCNC(=N)N)C(=O)N[C@H](CCCCN)C(=O)N[C@H](Cc1c[nH]c2ccccc12)C(=O)N[C@H](CCCNC(=N)N)C(=O)N[C@H](CCCCN)C(=O)N[C@H](Cc1c[nH]c2ccccc12)C(=O)N[C@H](CCCNC(=N)N)C(=O)N[C@H](CCCCN)C(N)=O | – | mouse | intraperitoneal, 40 mg/kg single dose, day 2 | – | survival | 75% |
